Measurements of several laboratories.
Each numbered part is a random draw from the data of one study; scales do not carry over between parts. Substitutions count along the parent as printed.
UniProt O23661, sequence (whole entry, looked up): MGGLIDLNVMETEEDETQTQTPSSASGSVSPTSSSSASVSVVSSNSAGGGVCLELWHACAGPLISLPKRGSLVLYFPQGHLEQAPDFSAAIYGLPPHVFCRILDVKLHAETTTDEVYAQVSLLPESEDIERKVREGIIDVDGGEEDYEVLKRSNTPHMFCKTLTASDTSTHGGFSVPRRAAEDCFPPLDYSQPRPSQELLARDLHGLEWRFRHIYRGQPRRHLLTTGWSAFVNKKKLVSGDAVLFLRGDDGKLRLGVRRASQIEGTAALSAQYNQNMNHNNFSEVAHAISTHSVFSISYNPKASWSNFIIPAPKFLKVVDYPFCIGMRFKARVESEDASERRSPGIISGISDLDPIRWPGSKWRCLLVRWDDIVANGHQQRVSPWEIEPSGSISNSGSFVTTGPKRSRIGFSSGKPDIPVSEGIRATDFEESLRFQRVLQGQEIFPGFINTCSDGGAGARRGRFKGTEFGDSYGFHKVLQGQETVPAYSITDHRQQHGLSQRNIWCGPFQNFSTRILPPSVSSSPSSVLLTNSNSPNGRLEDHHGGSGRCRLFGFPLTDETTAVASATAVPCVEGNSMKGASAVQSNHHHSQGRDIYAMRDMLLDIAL
UniProt Q93WC4, sequence (whole entry, looked up): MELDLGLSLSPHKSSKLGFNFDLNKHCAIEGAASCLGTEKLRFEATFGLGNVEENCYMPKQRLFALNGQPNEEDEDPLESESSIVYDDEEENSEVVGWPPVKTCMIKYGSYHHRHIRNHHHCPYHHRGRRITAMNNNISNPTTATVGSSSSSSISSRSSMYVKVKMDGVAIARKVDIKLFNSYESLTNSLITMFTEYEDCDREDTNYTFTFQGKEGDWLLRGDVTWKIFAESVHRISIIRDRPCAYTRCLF
UniProt Q8LAL2, sequence (whole entry, looked up): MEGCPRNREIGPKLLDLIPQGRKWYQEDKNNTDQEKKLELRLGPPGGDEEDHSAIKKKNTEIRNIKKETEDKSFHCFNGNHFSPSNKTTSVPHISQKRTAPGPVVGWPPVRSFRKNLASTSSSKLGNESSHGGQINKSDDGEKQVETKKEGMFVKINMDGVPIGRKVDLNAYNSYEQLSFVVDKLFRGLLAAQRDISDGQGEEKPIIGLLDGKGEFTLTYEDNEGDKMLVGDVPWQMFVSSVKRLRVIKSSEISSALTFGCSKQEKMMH

Sample 1 — target: CCND2, cyclin fold, Cln2 fusion (human); technique: yeast growth competition, sequencing; matrix: yeast; notes: weak parent motif; baseline: not given; reading: higher = stronger binding
Starting sequence: RB1 docking peptide (human); PKPLKKLRFDIEG; partner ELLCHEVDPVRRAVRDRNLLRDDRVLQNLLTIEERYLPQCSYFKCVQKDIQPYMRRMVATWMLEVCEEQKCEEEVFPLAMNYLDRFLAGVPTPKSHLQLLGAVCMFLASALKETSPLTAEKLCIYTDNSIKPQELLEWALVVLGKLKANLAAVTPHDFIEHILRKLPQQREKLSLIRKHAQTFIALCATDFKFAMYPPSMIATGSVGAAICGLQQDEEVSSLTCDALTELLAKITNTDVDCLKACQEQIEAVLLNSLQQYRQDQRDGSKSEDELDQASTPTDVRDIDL
Change	normalised enrichment score
PKPLKKLDFDIEG [R8D]	-0.116
PKPLKKLRFPIEG [D10P]	0.376
PKPLKKLCFDIEG [R8C]	-0.017
PKPLDKLRFDIEG [K5D]	0.0589
NKPLKKLRFDIEG [P1N]	0.007
PKPLKKLAFDIEG [R8A]	0.116
PKKLKKLRFDIEG [P3K]	-0.65
PKPLKKLMFDIEG [R8M]	0.116
WKPLKKLRFDIEG [P1W]	0.324
PKPLKKLRFMIEG [D10M]	0.648
PKPLKKLRHDIEG [F9H]	0.143
PKPLKKLRFDIEE [G13E]	0.623
PKPLKVLRFDIEG [K6V]	0.108
PKPLKKLRFDIEQ [G13Q]	0.535
KKPLKKLRFDIEG [P1K]	0.225
PKPLGKLRFDIEG [K5G]	0.0979
PKPLKKLRGDIEG [F9G]	0.232

Sample 2 — technique: RNA Bind-n-Seq; molecule type: RNA; matrix: in vitro; tested at: not given; baseline: input RNA pool; reading: higher = stronger binding
Target: RING finger protein unkempt homolog, zinc fingers 1-6, GST-SBP tag (UNK, Homo sapiens, UniProt Q9C0B0, residues 30-357)
Notes: RNA with constant flanks, human and mouse sites, ends assumed
Construct (chain): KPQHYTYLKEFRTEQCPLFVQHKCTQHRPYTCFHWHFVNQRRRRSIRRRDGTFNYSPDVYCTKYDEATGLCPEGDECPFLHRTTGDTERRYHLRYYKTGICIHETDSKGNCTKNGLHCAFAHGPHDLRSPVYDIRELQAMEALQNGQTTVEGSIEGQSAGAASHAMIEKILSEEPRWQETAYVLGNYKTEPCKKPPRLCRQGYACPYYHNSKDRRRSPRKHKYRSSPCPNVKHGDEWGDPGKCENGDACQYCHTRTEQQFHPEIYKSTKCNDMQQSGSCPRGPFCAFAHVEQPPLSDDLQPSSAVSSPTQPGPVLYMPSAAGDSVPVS
Oligonucleotide	bound/input enrichment
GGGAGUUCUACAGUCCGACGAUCCCGACCACAGCCCCUCACAAGGAGAGGUACUUCGACCGAGUAGAUGAGAACAACCCAGAGUACUUGAGGGAGAGGAACAUGGCACCAGACCUUCGCCAGGACUUCAACAUGAUGGAGCAACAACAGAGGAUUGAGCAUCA	0.199 ratio
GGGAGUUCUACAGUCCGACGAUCGCCAUGGCUGACAAGGAAGCGGCCUUUGACGACGCAGUGGAAGAACGGGUGAUCAACGAGGAGUACAAAAUAUGGAAGAAGAACACCCCUUUUCUUUAUGAUUUGGUGAUGACCCAUGCCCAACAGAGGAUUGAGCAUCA	0.131 ratio
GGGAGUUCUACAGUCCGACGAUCGCACCCAGGUCCUAUAGGAUAGCACCUAGGCCAUACAGGUUAGCACCUAGACCCUUGAUGUUAGCAUCUAGACGUUCUAUGAUGAUGUCCUAUGCUGCAGAACGUUCCAUGAUGUCAUCUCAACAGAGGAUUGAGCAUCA	0.193 ratio
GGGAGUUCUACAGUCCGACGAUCGUGGGAGAUUUGGUACUCAUCAUCCUAGACGAACGCCAUGACAAUUAUGUGUUAUUUACUGUUAGUCCUACUUUAUAUUUUCUACAUUCAGAGUCUCUACCUGCCCUGGAUCUCAAACCACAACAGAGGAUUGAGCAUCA	3.01 ratio
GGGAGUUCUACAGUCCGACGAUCGCCUUUGAAGUGGAACAUGAAUGCUUGGGCAAAUGUCAGGGUCUCUUUGCGCCUCAGUUUUAUGUUCAGCCCGACGCUCCCUGUAUCCAGUGCCUGGAGUGCUGUGGAAUGUUUGCUCCCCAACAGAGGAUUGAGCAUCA	0.195 ratio
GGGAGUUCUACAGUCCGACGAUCGACAGGACUGCUUUGGAUACUAUCAAGGAACAAACACAAAGUGGUGGUGACCUUCGGAGUAGCUCACAGCCCACAGCCGCCAGCGCUCCUCAGAGCUUGAGCAGUCAACGGCGGCUGGUCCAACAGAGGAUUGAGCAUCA	0.0847 ratio
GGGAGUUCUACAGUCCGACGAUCGUCAUUGUCAUUCCGCAGUCCUCUCUCUCCACCAAUGCUGUUGUGGUGGAUCUUGGGCUAAUUAGAGUUCACAAUCGGUUCAGUCUGGUGUCUGGAGAAGACACUGCAAAUCCUCCAGUGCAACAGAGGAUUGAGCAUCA	0.266 ratio
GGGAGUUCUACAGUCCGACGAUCGAGGAAGGACUGAAGACAGCGGACCCUCAUGACUGCUCUGCAUAUACUGGUUGGACAGGCAUAGCACUUUUGUACCUGCAGCUGUACCGGGUCACUGGUGACCAGACCUACCUGCUUCGACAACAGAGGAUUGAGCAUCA	0.101 ratio
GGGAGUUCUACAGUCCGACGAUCAUAUACAUGUUAUAGAACAUGUUCUCCACAUAAAAGCCAUAGGGACCCCCUUCUUUAAAAAAAAAAUCAUUUGAAAAGAAUAAGUUUGCCCAGUGUGGUGCAAGCCAGUAUCCCUAGCGCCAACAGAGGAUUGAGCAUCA	0.329 ratio
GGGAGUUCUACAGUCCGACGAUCAGUCUUGCAUCUUUACUAGAACUAUUGAAAGGUGUCUUCAGCACAUGUAAAGGGGACCUCUUAGAAGUUACAGAUGGCAAUGUGAAGACCCAGCCUGCAGUCCUAGAGAAUCUGGUCUUCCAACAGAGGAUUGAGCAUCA	0.288 ratio
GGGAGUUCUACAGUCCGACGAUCGAAGUCACCUCAAAGCGAGCACAUAUGCUGAUUGACAUGCACUUUCGGAGUCUGCGCACUAAGUUGUCUCUGAUAAUGAGAAAUGAAGAAGCUAGUAAGCAGCUGGAGAGUUCAAGGCAGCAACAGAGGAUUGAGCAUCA	0.195 ratio

Sample 3 — target: TEF, bZIP domain (human); technique: DHFR protein complementation; matrix: yeast; baseline: wild-type JUN-FOS pair; reading: higher = stronger binding
Notes: single substitutions, most at no-binding floor
Starting sequence: JUN, bZIP domain (human); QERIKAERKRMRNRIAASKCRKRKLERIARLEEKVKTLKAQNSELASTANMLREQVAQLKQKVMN; partner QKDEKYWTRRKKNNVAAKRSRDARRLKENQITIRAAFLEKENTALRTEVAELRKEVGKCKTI
Change	binding fitness [natural log]
E32D	-1.54
T37R	-1.45
E54R	-1.49
L38A	-1.5
V35P	-1.52
E33A	-1.31
K34L	-1.19
M51P	-1.56
T37Q	-1.43
L59G	-1.21
A29K	-1.55
R53S	-1.38
K34G	-1.36
E44K	-1.52
V56W	-1.51
A57Q	-1.46

Sample 4 — technique: DHFR PCA, deep sequencing; matrix: yeast; with: (+)-ABA 0.11 µM; baseline: wild-type fitted maximum; reading: higher = stronger binding
Target: ABI1, truncated, D143A, DHFR fusion (Arabidopsis thaliana)
Notes: methotrexate growth selection, single substitutions
Starting sequence: PYL1, truncated, DHFR fusion (Arabidopsis thaliana); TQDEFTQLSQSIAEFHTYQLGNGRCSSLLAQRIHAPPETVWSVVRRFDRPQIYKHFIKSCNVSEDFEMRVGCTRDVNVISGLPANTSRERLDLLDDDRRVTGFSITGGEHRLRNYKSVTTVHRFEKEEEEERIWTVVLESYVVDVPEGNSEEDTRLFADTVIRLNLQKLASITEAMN
Change	relative binding score
V143T	15.5%
V142M	4.86%
K54V	1.47%
Y115F	27%
L91P	-1.14%
A158W	7.2%
N77A	47.8%
Q19K	45.5%
I52W	10%
V70Q	-0.927%
D159Q	-9.11%
T6K	55.7%
G102I	-4.67%
K126D	52.9%
A158F	6.84%
M176I	15.9%
A13L	20.8%
I33K	-6.08%
V137A	-1.07%
L169R	3.87%
M176A	19.3%
I172L	20.6%
T106Q	7.52%
E131G	63.5%
R132L	22.9%

Sample 5 — technique: universal PBM; molecule type: double-stranded DNA, one strand shown; matrix: in vitro; tested at: not given; reading: higher = stronger binding
Target: Sal-like protein 4, full length isoform B (SALL4, Homo sapiens, UniProt Q9UJQ4-2, residues 1-616)
Notes: 8-mer, flanks averaged, mean of replicates
Construct (chain): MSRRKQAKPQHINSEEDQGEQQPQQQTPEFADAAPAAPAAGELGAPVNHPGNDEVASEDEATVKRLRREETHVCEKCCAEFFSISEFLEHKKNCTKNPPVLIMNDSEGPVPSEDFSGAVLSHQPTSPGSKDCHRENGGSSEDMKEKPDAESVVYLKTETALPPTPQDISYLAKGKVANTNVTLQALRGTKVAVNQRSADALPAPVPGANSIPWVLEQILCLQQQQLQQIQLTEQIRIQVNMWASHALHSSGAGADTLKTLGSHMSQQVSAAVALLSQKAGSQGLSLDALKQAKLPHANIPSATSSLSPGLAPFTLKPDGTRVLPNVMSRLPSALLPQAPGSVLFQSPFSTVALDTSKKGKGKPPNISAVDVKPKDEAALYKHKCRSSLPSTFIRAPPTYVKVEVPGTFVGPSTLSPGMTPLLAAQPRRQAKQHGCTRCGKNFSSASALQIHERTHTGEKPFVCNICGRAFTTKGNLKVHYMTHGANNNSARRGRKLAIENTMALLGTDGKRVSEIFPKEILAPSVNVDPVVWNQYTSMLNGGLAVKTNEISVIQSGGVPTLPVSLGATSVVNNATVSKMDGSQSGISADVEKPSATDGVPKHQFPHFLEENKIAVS
Oligonucleotide	E-score
ACCGACAG	-0.221
GTGAGGGA	-0.165
ACCTTAGG	-0.227
GGCGGTAA	-0.155
CTTTGCCC	-0.192
CAGGAGAG	-0.169
CCCGGAGC	-0.285
CCTGCACA	-0.17
AGCCACCT	-0.135
ACAATGCC	-0.0607
GTCGAGTA	-0.0708
CATGGTAG	-0.102
AAAGTTAC	0.106
CTTGGCGA	-0.301
ACGACGGA	-0.0829
CCTGTTTC	0.00403
GACACCTA	0.101
ATCTTTAG	0.0896
CCTTCTCG	-0.19
ACAGAGAC	0.0314
CACGGGAA	-0.259
AGGGGAAC	-0.191
ATTTGACG	0.156
ATTTATGC	0.351
ATTTACTC	0.146

Sample 6 — technique: two-hybrid; baseline: out of 4 tests; reading: higher = firmer interaction
Partner: ARF10 575-693 (Arabidopsis thaliana, UniProt Q9SKN5)
Target sequence (chain): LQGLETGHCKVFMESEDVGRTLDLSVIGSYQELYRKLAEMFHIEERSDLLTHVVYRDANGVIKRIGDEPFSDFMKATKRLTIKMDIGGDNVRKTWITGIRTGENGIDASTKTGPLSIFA
Substance	positive tests
IAA29 (Arabidopsis thaliana, UniProt Q93WC4)	0
ETT (Arabidopsis thaliana, UniProt O23661)	0
IAA26 (Arabidopsis thaliana, UniProt Q8LAL2)	2

Sample 7 — technique: protein-binding microarray; molecule type: double-stranded DNA, one strand shown; matrix: in vitro; tested at: 2200 nM top; notes: 60-bp whole probe; with: salmon DNA 0.4 mg/ml; baseline: random background probes; reading: higher = stronger binding; all sequences stand within: GCCTAGCAC … GTCTTGATTCGCTTGACGCTGCTG
Target: Interferon regulatory factor 7, full length, phosphomimetic (IRF7, Homo sapiens, UniProt Q92985, residues 1-503, S471D/S472D/S475D/S476D/S477D/S483D/S484D/S487D)
UniProt Q92985, sequence (whole entry, unmodified, looked up): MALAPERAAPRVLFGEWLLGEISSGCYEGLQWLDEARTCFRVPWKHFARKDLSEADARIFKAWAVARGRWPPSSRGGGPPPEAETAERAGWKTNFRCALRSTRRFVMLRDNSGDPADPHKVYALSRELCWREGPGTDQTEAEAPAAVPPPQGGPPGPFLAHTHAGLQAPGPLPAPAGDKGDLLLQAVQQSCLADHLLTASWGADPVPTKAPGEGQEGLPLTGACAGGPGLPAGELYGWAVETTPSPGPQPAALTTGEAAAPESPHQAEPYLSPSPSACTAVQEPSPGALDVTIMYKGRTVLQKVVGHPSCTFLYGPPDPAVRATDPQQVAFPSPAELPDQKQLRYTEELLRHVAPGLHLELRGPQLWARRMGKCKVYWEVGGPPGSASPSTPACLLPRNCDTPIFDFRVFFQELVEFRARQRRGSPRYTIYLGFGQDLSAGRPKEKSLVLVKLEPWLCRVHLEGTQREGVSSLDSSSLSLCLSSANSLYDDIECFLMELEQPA
Oligonucleotide	fitted relative affinity
GTTCTTTTCTGTTGTCTGTGTGTGCTA	3.44 z-score
TCAGTTCTCAGCTTGGGACTGTGCTAG	0.971 z-score
GACGGTATCGGGTATCGGGAGGTGCTA	-0.0912 z-score
TTAGAGCTCCTCCTTCTCTAAGTGCTA	0.583 z-score
GACGAACTGCGACTGGAGACGTGCTAG	-0.0118 z-score
TCACATCTGGGTATTTTACTGTGCTAG	1.02 z-score
TTAGGTCTCCTTATCCTTAAGTGCTAG	0.898 z-score
CAAGTGATGTAGCTGGGAGCGTGCTAG	-0.268 z-score
TCATGTTTACAGATGTTACTGTGCTAG	1.23 z-score
GACGGTCTCGGTTTCGTGACGTGCTAG	2.7 z-score
CTAGATATCGGGACTGGATTAGTGCTA	-0.0208 z-score
GACGGTACCGACACTGGGGACGTGCTA	-0.744 z-score
TATTTTTTTGTAATCGAAATGTGCTAG	0.78 z-score
TAAGTTTCACTTTCCAAAGCGTGCTAG	9.09 z-score
TTAGGTACCGGTATCGGTTAGTGCTAG	0.414 z-score
GACGGTATCCTACTTCTGACGTGCTAG	1.08 z-score
GACGGTTCCGGTATCGGGACGTGCTAG	1.01 z-score
